# Measurements collected from several papers.
# Lines come from different studies, so protocols differ. Numbers after ± are the reported error. Ends that are not written are not given here.
# B1: UGT1A9 (Homo sapiens, UniProt O60656); chain GKLLVVPMDGSHWFTMRSVVEKLILRGHEVVVVMPEVSWQLGRSLNCTVKTYSTSYTLEDLDREFKAFAHAQWKAQVRSIYSLLMGSYNDIFDLFFSNCRSLFKDKKLVEYLKESSFDAVFLDPFDNCGLIVAKYFSLPSVVFARGILCHYLEEGAQCPAPLSYVPRILLGFSDAMTFKERVRNHIMHLEEHLLCHRFFKNALEIASEILQTPVTEYDLYSHTSIWLLRTDFVLDYPKPVMPNMIFIGGINCHQGKPLPMEFEAYINASGEHGIVVFSLGSMVSEIPEKKAMAIADALGKIPQTVLWRYTGTRPSNLANNTILVKWLPQNDLLGHPMTRAFITHAGSHGVYESICNGVPMVMMPLFGDQMDNAKRMETKGAGVTLNVLEMTSEDLENALKAVINDKSYKENIMRLSSLHKDRPVEPLDLAVFWVEFVMRHKGAPHLRPAAHDLTWYQYHSLDVIGFLLAVVLTVAFITFKCCAYGYRKCLGKKGRVKKAHKSKTH
# B2: chain SAGSPTPGTSESATPESGPGSEPATSGSETPGTSESATPESGPGSEPATSGSETPGTSESATPESGPGTSTEPSEGSAPGTSESATPESGPGSPAGSPTSTEEGSPAGSPTSTEEGSPAGSPTSTEEGTSESATPESGPGTSTEPSEGSAPGTSESATPESGPGSEPATSGSETPGTSESATPESGPGSEPATSGSETPGTSESATPESGPGTSTEPSEGSAPGSPAGSPTSTEEGTSESATPESGPGSEPATSGSETPGTSESATPESGPGSPAGSPTSTEEGSPAGSPTSTEEGTSTEPSEGSAPGTSESATPESGPGTSESATPESGPGTSESATPESGPGSEPATSGSETPGSEPATSGSETPGSPAGSPTSTEEGTSTEPSEGSAPGTSTEPSEGSAPGSEPATSGSETPTAEAAGCGTAEAASASR
# B3: neurofilament light chain; sequence looked up; chain SSFSYEPYYSTSYKRRYVETPRVHISSVRSGYSTARSAYSSYSAPVSSSLSVRRSYSSSSGSLMPSLENLDLSQVAAISNDLKSIRTQEKAQLQDLNDRFASFIERVHELEQQNKVLEAELLVLRQKHSEPSRFRALYEQEIRDLRLAAEDATNEKQALQGEREGLEETLRNLQARYEEEVLSREDAEGRLMEARKGADEAALARAELEKRIDSLMDEISFLKKVHEEEIAELQAQIQYAQISVEMDVTKPDLSAALKDIRAQYEKLAAKNMQNAEEWFKSRFTVLTESAAKNTDAVRAAKDEVSESRRLLKAKTLEIEACRGMNEALEKQLQELEDKQNADISAMQDTINKLENELRTTKSEMARYLKEYQDLLNVKMALDIEIAAYRKLLEGEETRLSFTSVGSITSGYSQSSQVFGRSAYGGLQTSSYLMSTRSFPSYYTSHVQEEQIEVEETIEAAKAEEAKDEPPSEGEAEEEEKDKEEAEEEEAAEEEEAAKEESEEAKEEEEGGEGEEGEETKEAEEEEKKVEGAGEEQAAKKKD
Substance,target or system,assay,test system,setting,how to read,endpoint,result
insulin aspart,,,"elderly type 1 diabetes, serum","subcutaneous, 0.2 U/kg",,onset of appearance,5.2 min
B1 (UGT1A9),O=C(/C=C/c1ccccc1)c1ccc(O)cc1,steady-state kinetics,,"pH 7.4, 37 °C",,Vmax/Km,197 µL/min/mg
COc1cccc2c1C(=O)c1c(O)c3c(c(O)c1C2=O)C[C@@](O)(C(=O)CO)C[C@@H]3O[C@H]1C[C@H](NC(=O)[C@@H]2CCCN2C(=O)CN)[C@H](O)[C@H](C)O1,,,"mouse, E0771 tumour-bearing, kidney","intravenous, 92 µmol/kg PhAc-ALGP-Dox",,Cmax,54 µM
B2,,C4 reversed-phase HPLC,,,longer = more hydrophobic,retention time,20.2 min
B3 (neurofilament light chain),,,human EDTA whole blood,"24 h, 2 to 8 °C, delayed centrifugation",,stability,stable
rnpA F107W (Bacillus subtilis),,"NMR, refers to: His105",,"25 °C, 1.00 M NaCl, folded, sulfate-bound, numbering of the source, together with: sulfate 20 mM",,pKa,5.73
insulin glulisine,,,"obese type 2 diabetes patients, serum","subcutaneous, 0.2 U/kg, geometric mean",,AUC(0-6 h),2 nM·h
"KCNTATCATQRLANFLVHSSNNFGPILPPTNVGSNTY (Pramlintide; not fully specified (C-terminus, bridges); cysteine pairing not given here; sequence looked up)",,refers to: Headache,"peptide, obese or overweight humans","concentration not given, ITT population",,adverse event incidence,7.1%
CC(C)[C@H](NC(=O)[C@@H]1CCCN1C(=O)[C@H](CCCNC(=N)N)NC(=O)[C@H](CS)NC(=O)[C@H](Cc1c[nH]c2ccccc12)NC(=O)[C@H](CCCNC(=N)N)NC(=O)[C@@H](Cc1ccccc1)NC(=O)[C@H](Cc1c[nH]cn1)NC(=O)[C@H](CCC(=O)O)NC(=O)[C@H](CS)NC(=O)[C@H](CS)NC(=O)[C@H](CCCCN)NC(=O)[C@@H]1CC(=O)N[C@@H](CCCNC(=N)N)C(=O)N[C@@H](C)C(=O)N[C@@H](CC(=O)O)C(=O)N[C@H](Cc2ccc(O)cc2)C(=O)N1)C(N)=O [technetium-99m labelled],,,"C57 mice, blood","intravenous, 0.037 MBq, 0.5 h",,tissue uptake,3.46 ± 0.5 %ID/g
CC1=C(I)C(C)=[N+]2C1=C(c1ccc(OCCn3cc(CNC(=O)CSC[C@H](NC(=O)c4ccc(-c5nnc(C)c6c5CCC(O)CCC6)cc4)C(=O)N[C@@H](CCCNC(=N)N)C(=O)N[C@@H](CCCNC(=N)N)C(=O)N[C@@H](CCCNC(=N)N)C(=O)N[C@@H](CCCNC(=N)N)C(=O)N[C@@H](CCCNC(=N)N)C(=O)N[C@@H](CCCNC(=N)N)C(=O)N[C@@H](CCCNC(=N)N)C(=O)N[C@@H](CCCNC(=N)N)C(N)=O)nn3)cc1)c1c(C)c(I)c(C)n1[B-]2(F)F (some centres unmarked),,,,"1 µM, together with: DPBF, 525 nm light","reference: rose bengal, erythrosine B",singlet oxygen quantum yield,0.6
teriparatide,,ELISA,healthy women,"sc, 20 µg single dose, reference product, geometric mean",,AUC(0-inf),0.103 ng·h/mL
